Experimental data collected from several papers.
Compare with care: the assays were run in different laboratories.
Vesicular acetylcholine transporter: Vesicular acetylcholine transporter (Rattus norvegicus, UniProt Q62666)
Chain of UniProt Q62666 (whole entry, looked up): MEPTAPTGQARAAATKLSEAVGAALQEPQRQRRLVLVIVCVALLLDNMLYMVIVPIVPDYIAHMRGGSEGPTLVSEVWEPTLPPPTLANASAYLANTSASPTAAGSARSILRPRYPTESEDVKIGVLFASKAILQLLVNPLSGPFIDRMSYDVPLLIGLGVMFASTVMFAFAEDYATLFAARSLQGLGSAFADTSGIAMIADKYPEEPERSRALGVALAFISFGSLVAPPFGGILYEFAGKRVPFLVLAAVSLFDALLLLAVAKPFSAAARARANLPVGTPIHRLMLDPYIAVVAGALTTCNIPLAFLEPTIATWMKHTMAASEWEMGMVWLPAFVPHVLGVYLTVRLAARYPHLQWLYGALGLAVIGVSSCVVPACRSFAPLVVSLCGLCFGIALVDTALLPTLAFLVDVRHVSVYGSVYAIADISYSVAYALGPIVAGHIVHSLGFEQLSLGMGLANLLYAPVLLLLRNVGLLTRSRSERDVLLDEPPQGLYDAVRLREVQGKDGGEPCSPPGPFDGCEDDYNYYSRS
PTGS2: Prostaglandin G/H synthase 2 (PTGS2, Homo sapiens, UniProt P35354)
Chain of UniProt P35354 (whole entry, looked up): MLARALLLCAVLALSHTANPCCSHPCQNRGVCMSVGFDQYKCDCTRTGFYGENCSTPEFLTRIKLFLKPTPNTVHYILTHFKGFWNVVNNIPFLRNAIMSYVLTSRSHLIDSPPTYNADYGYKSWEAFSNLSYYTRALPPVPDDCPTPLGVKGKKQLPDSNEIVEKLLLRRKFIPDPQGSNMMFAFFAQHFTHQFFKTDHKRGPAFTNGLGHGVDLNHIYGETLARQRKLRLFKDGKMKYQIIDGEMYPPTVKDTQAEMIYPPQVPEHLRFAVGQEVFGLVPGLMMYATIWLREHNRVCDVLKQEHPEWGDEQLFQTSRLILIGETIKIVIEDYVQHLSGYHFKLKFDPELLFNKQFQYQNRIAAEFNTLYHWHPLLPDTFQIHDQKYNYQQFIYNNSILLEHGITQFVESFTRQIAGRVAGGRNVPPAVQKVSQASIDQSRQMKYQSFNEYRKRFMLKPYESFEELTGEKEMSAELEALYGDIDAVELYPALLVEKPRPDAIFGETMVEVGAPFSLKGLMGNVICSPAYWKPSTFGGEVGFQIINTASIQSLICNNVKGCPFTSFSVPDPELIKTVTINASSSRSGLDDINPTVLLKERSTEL
Chain of UniProt P07384 (whole entry, looked up): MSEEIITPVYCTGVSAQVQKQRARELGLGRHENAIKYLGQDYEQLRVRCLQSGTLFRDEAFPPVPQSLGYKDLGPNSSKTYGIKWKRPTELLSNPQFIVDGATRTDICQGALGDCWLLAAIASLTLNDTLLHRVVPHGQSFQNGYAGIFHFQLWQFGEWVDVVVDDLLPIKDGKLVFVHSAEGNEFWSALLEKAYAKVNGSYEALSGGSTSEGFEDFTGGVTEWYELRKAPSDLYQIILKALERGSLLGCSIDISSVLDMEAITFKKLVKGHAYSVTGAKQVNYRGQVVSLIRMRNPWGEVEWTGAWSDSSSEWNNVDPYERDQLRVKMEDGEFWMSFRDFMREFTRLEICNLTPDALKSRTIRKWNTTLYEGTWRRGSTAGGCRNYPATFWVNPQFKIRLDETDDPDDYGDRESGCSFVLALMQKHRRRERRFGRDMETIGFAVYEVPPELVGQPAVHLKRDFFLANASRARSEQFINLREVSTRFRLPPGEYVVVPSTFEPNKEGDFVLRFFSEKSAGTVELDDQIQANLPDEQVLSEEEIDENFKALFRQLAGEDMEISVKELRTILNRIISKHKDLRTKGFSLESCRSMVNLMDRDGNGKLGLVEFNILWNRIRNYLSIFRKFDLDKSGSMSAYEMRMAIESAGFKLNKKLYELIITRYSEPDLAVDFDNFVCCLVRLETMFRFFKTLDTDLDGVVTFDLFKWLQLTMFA
Chain of UniProt Q9ULC6 (whole entry, looked up): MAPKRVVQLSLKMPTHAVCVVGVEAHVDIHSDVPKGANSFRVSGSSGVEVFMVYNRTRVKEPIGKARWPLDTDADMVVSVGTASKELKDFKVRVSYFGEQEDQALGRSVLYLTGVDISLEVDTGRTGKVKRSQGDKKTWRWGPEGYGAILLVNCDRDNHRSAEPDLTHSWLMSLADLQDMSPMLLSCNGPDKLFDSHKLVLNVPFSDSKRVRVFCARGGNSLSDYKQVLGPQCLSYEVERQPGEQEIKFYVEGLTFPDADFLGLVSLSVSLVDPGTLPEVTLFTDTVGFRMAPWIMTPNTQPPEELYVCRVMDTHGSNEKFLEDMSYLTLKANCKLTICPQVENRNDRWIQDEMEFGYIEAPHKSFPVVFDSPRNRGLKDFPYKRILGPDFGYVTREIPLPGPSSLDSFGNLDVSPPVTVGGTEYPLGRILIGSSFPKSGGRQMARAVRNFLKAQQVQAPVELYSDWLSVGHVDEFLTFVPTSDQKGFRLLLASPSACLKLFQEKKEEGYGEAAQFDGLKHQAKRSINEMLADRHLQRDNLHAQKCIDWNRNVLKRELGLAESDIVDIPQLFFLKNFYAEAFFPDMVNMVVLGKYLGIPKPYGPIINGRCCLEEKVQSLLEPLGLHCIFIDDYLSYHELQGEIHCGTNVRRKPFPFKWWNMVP
Chain of UniProt Q16288 (whole entry, looked up): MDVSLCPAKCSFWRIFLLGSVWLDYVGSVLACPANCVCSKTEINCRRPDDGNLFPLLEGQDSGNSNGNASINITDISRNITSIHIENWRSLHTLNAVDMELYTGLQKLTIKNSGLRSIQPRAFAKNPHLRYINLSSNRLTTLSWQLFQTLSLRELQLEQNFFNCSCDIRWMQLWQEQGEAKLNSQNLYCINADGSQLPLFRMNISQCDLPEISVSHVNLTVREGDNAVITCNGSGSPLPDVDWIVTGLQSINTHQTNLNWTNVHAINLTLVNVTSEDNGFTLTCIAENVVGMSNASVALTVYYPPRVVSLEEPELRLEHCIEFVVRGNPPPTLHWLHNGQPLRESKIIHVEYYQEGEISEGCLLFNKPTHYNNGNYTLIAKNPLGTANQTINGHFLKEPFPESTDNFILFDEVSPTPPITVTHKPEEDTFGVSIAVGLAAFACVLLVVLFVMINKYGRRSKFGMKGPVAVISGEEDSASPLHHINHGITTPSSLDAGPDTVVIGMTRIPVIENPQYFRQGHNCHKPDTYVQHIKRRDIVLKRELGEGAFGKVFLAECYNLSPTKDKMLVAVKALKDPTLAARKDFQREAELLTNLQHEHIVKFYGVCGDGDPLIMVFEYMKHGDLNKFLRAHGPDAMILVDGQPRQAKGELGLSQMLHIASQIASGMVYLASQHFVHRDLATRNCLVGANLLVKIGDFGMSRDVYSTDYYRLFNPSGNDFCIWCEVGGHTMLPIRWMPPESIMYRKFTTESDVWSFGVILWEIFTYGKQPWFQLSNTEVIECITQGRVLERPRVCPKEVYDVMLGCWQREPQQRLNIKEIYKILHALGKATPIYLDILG
Chain of UniProt Q6V1X1 (whole entry, looked up): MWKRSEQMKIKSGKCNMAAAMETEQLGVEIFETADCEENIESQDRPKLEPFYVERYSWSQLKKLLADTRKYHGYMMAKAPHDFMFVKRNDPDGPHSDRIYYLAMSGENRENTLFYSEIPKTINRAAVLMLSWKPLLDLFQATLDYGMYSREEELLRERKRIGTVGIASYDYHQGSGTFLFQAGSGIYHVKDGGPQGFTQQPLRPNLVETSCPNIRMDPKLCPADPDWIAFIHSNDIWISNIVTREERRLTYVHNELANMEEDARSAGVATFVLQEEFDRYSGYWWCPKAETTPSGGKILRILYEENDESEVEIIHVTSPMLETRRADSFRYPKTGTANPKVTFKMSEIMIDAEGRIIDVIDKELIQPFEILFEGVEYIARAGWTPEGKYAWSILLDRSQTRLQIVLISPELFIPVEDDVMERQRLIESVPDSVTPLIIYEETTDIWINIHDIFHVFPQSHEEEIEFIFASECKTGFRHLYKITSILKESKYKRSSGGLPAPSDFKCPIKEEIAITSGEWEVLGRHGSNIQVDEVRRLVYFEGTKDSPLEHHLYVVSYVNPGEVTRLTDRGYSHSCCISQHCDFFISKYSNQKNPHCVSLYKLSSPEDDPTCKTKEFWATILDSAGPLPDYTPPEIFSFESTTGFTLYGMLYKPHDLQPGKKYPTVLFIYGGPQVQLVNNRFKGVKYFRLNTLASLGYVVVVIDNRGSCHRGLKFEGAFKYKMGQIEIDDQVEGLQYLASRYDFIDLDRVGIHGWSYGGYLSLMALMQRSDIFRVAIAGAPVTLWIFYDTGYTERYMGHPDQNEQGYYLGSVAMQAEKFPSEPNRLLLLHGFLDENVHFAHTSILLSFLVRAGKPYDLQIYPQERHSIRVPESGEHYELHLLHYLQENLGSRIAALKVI

CC1=Cc2ccccc2C12CCN(C1Cc3ccccc3CC1O)CC2 (racemic)  selectivity ratio (Vesicular acetylcholine transporter; rat liver (sigma2); reference: Ki sigma2 over Ki VAChT): 74
Cc1ccc(S(=O)(=O)NNC(=O)COC(=O)c2ccccc2Nc2cccc(C(F)(F)F)c2)cc1  selectivity ratio (PTGS2; reference: COX-1 IC50 over COX-2 IC50): 1.69
CCn1c(-c2nc3cc(C(=O)N4CCC[C@@H](N)C4)cc(OC)c3n2C)cc2cccnc21  selectivity ratio (Protein-arginine deiminase type-1 (PADI1, Homo sapiens, UniProt Q9ULC6); reference: Ki PAD1 over PAD4): 36
CC(C)C[C@@H]1C(=O)N[C@H]([C@@H](C)O)C(=O)N[C@H](C)[C@@H](C)C(=O)O[C@@H](Cc2ccccc2)C(=O)N(C)[C@@H](C(C)C)C(=O)N2CCC[C@H]2C(=O)N(C)[C@H](Cc2ccccc2)C2=N[C@@H](CS2)C(=O)N[C@H](C)C2=N[C@@H](CS2)C(=O)N1C  selectivity ratio (Dipeptidyl peptidase 8 (Homo sapiens, UniProt Q6V1X1); reference: IC50 DPP4 over DPP8): 9.9 fold
COc1cc2nccc(Oc3ccc(NC(=O)c4cc5c(n(-c6ccccc6)c4=O)CCCC5=O)nc3)c2cc1OC  selectivity ratio (NT-3 growth factor receptor (NTRK3, Homo sapiens, UniProt Q16288); cell viability, CellTiter-Glo; Ba/F3 expressing recombinant kinase; reference: NTRK3 IC50 over AXL IC50): > 100
OC1Cc2ccccc2CC1N1CCC2(C=Cc3ccc(F)cc32)CC1 (racemic)  selectivity ratio (Vesicular acetylcholine transporter; rat liver (sigma2); reference: Ki sigma2 over Ki VAChT): 32
Cn1nccc1[C@]1(CNC(=O)c2ccc(F)c(F)c2-c2ccc(C(F)(F)F)cc2)NC(=O)NC1=O  selectivity ratio (Calpain-1 catalytic subunit (CAPN1, Homo sapiens, UniProt P07384); inhibitor; reference: CAPN1 over target): > 16700
O=C(COC(=O)c1ccccc1Nc1cccc(C(F)(F)F)c1)NNS(=O)(=O)c1ccccc1  selectivity ratio (PTGS2; reference: COX-1 IC50 over COX-2 IC50): 5.01

Excerpt of the above:
CC1=Cc2ccccc2C12CCN(C1Cc3ccccc3CC1O)CC2 (racemic)  selectivity ratio (Vesicular acetylcholine transporter; rat liver (sigma2); reference: Ki sigma2 over Ki VAChT): 74
